Assay results of several laboratories.
A part holds a random share of what one study measured. Changes are numbered by the printed parent chain.

Sample 1
Target: HLA class I histocompatibility antigen, A alpha chain, allele A*26:03 (Homo sapiens, UniProt P04439)
Observed: peptide-MHC binding
Molecule type: peptide
Tested at: concentration not given
Molecule	binding
YHRFGLYRL	inactive
ILQDRIRMY	inactive
DILASIIDY	inactive
GLAEKPNDY	inactive

Sample 2
Target: CCND3, cyclin fold, Cln2 fusion (human)
Technique: yeast growth competition, sequencing
Sample: yeast
Setting: weak parent motif
Baseline: not given
Direction: higher = stronger binding
Parent: viral docking peptide; KGVKRKLFAEDSS; partner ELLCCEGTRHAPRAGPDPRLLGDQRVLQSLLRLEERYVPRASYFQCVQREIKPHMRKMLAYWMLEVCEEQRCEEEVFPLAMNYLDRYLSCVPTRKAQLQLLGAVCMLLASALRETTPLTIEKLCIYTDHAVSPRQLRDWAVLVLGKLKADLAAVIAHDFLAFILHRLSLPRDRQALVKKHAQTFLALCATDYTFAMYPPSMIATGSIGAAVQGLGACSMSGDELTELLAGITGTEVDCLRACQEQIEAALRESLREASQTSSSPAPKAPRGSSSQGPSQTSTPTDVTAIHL
Change	normalised enrichment score
A9N	-0.12
V3Y	0.144
V3P	0.317
V3D	-0.126
V3L	0.312
V3G	0.536
D11R	0.277
E10Y	-0.102
F8Q	0.159
R5T	0.132
K4A	0.149
G2I	0.375
S12P	0.36
E10D	0.383
V3W	-0.427
K6M	0.215
R5W	-0.0827
V3I	0.314
A9M	0.232
K6W	-0.464
E10I	0.166

Sample 3
Target: UBE2D2 UBC core domain (UniProt P62837)
Chain of UniProt P62837 (whole entry, looked up): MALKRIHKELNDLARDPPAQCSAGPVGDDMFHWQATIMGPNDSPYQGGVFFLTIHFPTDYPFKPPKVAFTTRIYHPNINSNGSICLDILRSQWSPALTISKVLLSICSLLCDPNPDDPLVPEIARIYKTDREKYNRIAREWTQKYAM
Technique: yeast two-hybrid
Sample: yeast
Setting: mostly zero background
Baseline: not given
Direction: higher = stronger interaction
B1: RNF17 RING domain (UniProt Q9BXT8); chain SQPWGAAEIQCTRCGRRVSRSSGHHCELQCGHAFCELCLLMTEECTTIICPDCEVATAVNTRQR
B2: MARCHF2 RING domain (UniProt Q9P0N8); chain RLLSTVIRALDTPSDGPFCRICHEGANGECLLSPCGCTGTLGAVHKSCLEKWLSSSNTSYCELCHTEFAVEKRPRPLTEWL
B3: RFPL3 RING domain (UniProt O75679); chain MAALFQEASSCPVCSDYLEKPMSLECGCTVCLKCINSLQKEPHGEDLLCCCCSMVSQRNKIRP
B4: TRIM32 RING domain (UniProt Q13049); chain NLDALREVLECPICMESFTEEQLRPKLLHCGHTICRQCLEKLLASSINGVRCPFCSKITRITSLTQ
B5: RNF130 RING domain (UniProt Q86XS8); chain DKETDPDFDHCAVCIESYKQNDVVRILPCKHVFHKSCVDPWLSEHCTCPMCKLNILKALGIV
B6: TRIM2 RING domain (UniProt Q9C040); chain VRQIDKQFLICSICLERYKNPKVLPCLHTFCERCLQNYIPAHSLTLSCPVCRQTSILPEKGV
B7: TRIM74 RING domain (UniProt Q86UV6); chain SLLELEDWLQCPICLEVFKESLMLQCGHSYCKGCLVSLSYHLDTKVRCPMCWQVVDGSSSLP
B8: CBLL1 RING domain (UniProt Q75N03); chain GEKDDTPVHFCDKCGLPIKIYGRMIPCKHVFCYDCAILHEKKGDKMCPGCSDPVQRIEQCT
B9: TRIM68 RING domain (UniProt Q6AZZ1); chain LVEAIVEEVACPICMTFLREPMSIDCGHSFCHSCLSGLWEIPGESQNWGYTCPLCRAPVQPRNLRP
B10: NHLRC1 RING domain (UniProt Q6VVB1); chain MREAEISLLECKVCFEKFGHRQQRRPRNLSCGHVVCLACVAALAHPRTLALECPFCRRACRGCDTSD
B11: TRIM47 RING domain (UniProt Q96LD4); chain MDGSGPFSCPICLEPLREPVTLPCGHNFCLACLGALWPHRGASGAGGPGGAARCPLCQEPFPDGLQLR
Molecule	lacZ reporter activity
B1 (RNF17 RING domain)	0
B2 (MARCHF2 RING domain)	0
EDVLSKDAGECAICLEELQQGDTIARLPCLCIYHKGCIDEWFEVNRSCPEHPSD (ZNRF2 RING domain (UniProt Q8NHG8))	15600
GSEEEEIPFRCFICRQAFQNPVVTKCRHYFCESCALEHFRATPRCYICDQPTGGIFNPA (RNF113B RING domain (UniProt Q8IZP6))	0
B3 (RFPL3 RING domain)	0
B4 (TRIM32 RING domain)	0
B5 (RNF130 RING domain)	14600
B6 (TRIM2 RING domain)	0
PLRRLQEEKLCKICMDRHIAVVFIPCGHLVTCKQCAEAVDRCPMCSAVIDFKQRVF (BIRC8 RING domain (UniProt Q96P09))	0
B7 (TRIM74 RING domain)	0
B8 (CBLL1 RING domain)	0
B9 (TRIM68 RING domain)	0
B10 (NHLRC1 RING domain)	0
B11 (TRIM47 RING domain)	0

Further values, each from its own experiment
Technique: cross-linking MS
Molecule	partner	sample	setting	with	measurement	result
XPNPEP1 (Homo sapiens, UniProt Q9NQW7)	PLEKHG1 (Homo sapiens, UniProt Q9ULL1)	cell fractions		DSSO	cross-linked residues	K287 to K675
DEK (Homo sapiens, UniProt P35659)	SSH1 (Homo sapiens, UniProt Q8WYL5)	cell fractions		DSSO	cross-linked residues	K177 to S576
NDC80 (Homo sapiens, UniProt O14777)	NUF2 (Homo sapiens, UniProt Q9BZD4)		hits only		interaction screen	cross-linked
UFL1 (Homo sapiens, UniProt O94874)	CDK5RAP3 (Homo sapiens, UniProt Q96JB5)	cell fractions		DHSO	cross-linked residues	E126 to E435

A few entries again (sample 1):
Molecule	binding
YHRFGLYRL	inactive
ILQDRIRMY	inactive
DILASIIDY	inactive
GLAEKPNDY	inactive
